Measurements from different studies.
Each line is one published result; not all experiments were run side by side. Values joined by “and” are separate records of one study, mostly repeats; a detail may differ. ± marks the error that the study gave.

[Cl-].[Cl-].[Pt+2].[Ru+2].c1ccc(-c2nccnc2-c2ccccn2)nc1.c1cnc2c(c1)ccc1cccnc12.c1cnc2c(c1)ccc1cccnc12 — supercoiled DNA (pcDNA supercoiled plasmid; agarose gel electrophoresis; 20 µM, photoinduced cleavage, together with: 0.1 µM pcDNA): 77.4%
CCS(=O)(=O)c1nc(C2CC2)cc(C(F)(F)F)n1 — cells with nuclear SREBP1 (importin beta-1; SREBP1 nuclear import, high content imaging; HeLa Kyoto; 0.5 µM, 3 h, together with: glucose and MG132): 87.9% and 87.4% and 95% and 84.1%
O=C(Nc1cc(OCCN2CCCC2)c2ccccc2n1)c1cc(OCCN2CCCC2)cc(C(=O)Nc2cc(OCCN3CCCC3)c3ccccc3n2)n1 — ΔTm (c-myc G-quadruplex DNA; FRET melting; 1 µM, pH 7.4, together with: 60 mM potassium): 17.1 ± 0.8 K
c1coc(-c2n[nH]cc2-c2ccnc3ccccc23)c1 — log2 fold change (KIN3 (Candida albicans); kinase binding, MIB/MS competition; Candida albicans lysate; 10 µM; relative to: DMSO): -0.11
[Cl-].[Cl-].[Pt+2].[Ru+2].c1ccc(-c2nc3cc4ccccc4cc3nc2-c2ccccn2)nc1.c1cnc2c(c1)ccc1cccnc12.c1cnc2c(c1)ccc1cccnc12 — supercoiled DNA (pcDNA supercoiled plasmid; agarose gel electrophoresis; 10 µM, photoinduced cleavage, together with: 0.1 µM pcDNA): 91.5%
CCN(CC)c1ccc(/C=N/c2ccc(F)c(Cl)c2)c(O)c1 — IC50 (yeast alpha-glucosidase; enzyme activity; together with: pNPG): 60.9 µM
NCCOc1cc(NC(=O)c2cccc(C(=O)Nc3cc(OCCN)c4ccccc4n3)n2)nc2ccccc12 — ΔTm (c-myc G-quadruplex DNA; FRET melting; 1 µM, pH 7.4, together with: 60 mM potassium): 9.1 ± 0.2 K
Cc1cc(F)cc2c(CCC(=O)N[C@@H]3C(=O)NC[C@H]3O)c(-c3ccc(F)cc3)[nH]c12 — inhibition (adrenergic α1A receptor; binding; 10 µM): 12.5%
CCN(CC)c1ccc(/C=N/c2ccc(F)cc2)c(O)c1 — IC50 (yeast alpha-glucosidase; enzyme activity; together with: pNPG): 291 µM
[Cl-].[Cl-].[Pt+2].[Ru+2].c1ccc(-c2nc3ccccc3nc2-c2ccccn2)nc1.c1cnc2c(c1)ccc1cccnc12.c1cnc2c(c1)ccc1cccnc12 — supercoiled DNA (pcDNA supercoiled plasmid; agarose gel electrophoresis; 20 µM, photoinduced cleavage, together with: 0.1 µM pcDNA): 88.3%
C=CC(=O)N1CCN(c2nc(=O)n(-c3c(C)ccnc3C(C)C)c3nc(-c4c(O)cccc4F)c(F)cc23)[C@@H](C)C1 — inhibition (HRAS wild type (human); SOS-mediated nucleotide exchange, inhibitor; concentration not given): inactive
CN(C)CCOc1cc(NC(=O)c2cc(Cl)cc(C(=O)Nc3cc(OCCN(C)C)c4ccccc4n3)n2)nc2ccccc12 — ΔTm (c-myc G-quadruplex DNA; FRET melting; 1 µM, pH 7.4, together with: 60 mM potassium): 12.1 ± 0.5 K
CC(Nc1nc(N2CCCC2)nc2ccccc12)c1ccccc1 (centres unmarked) — cells with nuclear SREBP1 (importin beta-1; SREBP1 nuclear import, high content imaging; HeLa Kyoto; 0.02 µM, 3 h, together with: glucose and MG132): 88.2% and 88.6% and 90% and 84.1%
FC(F)(F)c1ccc2nccc(NCCc3ccccc3)c2c1 — IC50 (CDK8/CDK19; NF-κB reporter gene; 293-NFκB-Luc; 3 h, together with: TNF-α 10 ng/mL): > 5 µM
NCCCOc1cc(NC(=O)c2cc(OCc3c[nH]nn3)cc(C(=O)Nc3cc(OCCCN)c4ccccc4n3)n2)nc2ccccc12 — ΔTm (c-myc G-quadruplex DNA; FRET melting; 1 µM, pH 7.4, together with: 60 mM potassium): 5.9 ± 0.3 K
O=C(C#Cc1cn(Cc2ccccc2)c(=O)[nH]c1=O)NCc1ccccc1 — remaining MMP-14 activity (MMP-14; inhibitor, colorimetric; 20 µM): 95 ± 3%
CN(C)CCCOc1cc(NC(=O)c2cccc(C(=O)Nc3cc(OCCCN(C)C)c4ccccc4n3)n2)nc2ccccc12 — ΔTm (c-myc G-quadruplex DNA; FRET melting; 1 µM, pH 7.4, together with: 60 mM potassium): 16.6 ± 0.4 K
NC(=O)c1ccc2nccc(NCCc3ccccc3)c2c1 — IC50 (CDK8/CDK19; NF-κB reporter gene; 293-NFκB-Luc; 3 h, together with: TNF-α 10 ng/mL): > 5 µM
C#Cc1cc(-c2cc(Nc3nc(N[C@@H](C)c4ccc(F)cn4)ncc3Cl)n[nH]2)ccc1C=O — inhibition (TPR-TRKA kinase fusion, human; kinase activity, inhibitor; 0.2 µM): 100%
Oc1ccccc1-c1n[nH]cc1-c1ccnc2ccccc12 — log2 fold change (MPS1 (Candida albicans); kinase binding, MIB/MS competition; Candida albicans lysate; 1 µM; relative to: DMSO): -0.46
NCCOc1cc(C(=O)Nc2cc(OCCN3CCCC3)c3ccccc3n2)nc(C(=O)Nc2cc(OCCN3CCCC3)c3ccccc3n2)c1 — ΔTm (c-myc G-quadruplex DNA; FRET melting; 1 µM, pH 7.4, together with: 60 mM potassium): 17 ± 0.8 K
CCCN(CCC)C1CCc2ccc(O)cc2C1 (racemic) — EC50 (dopamine D2-like autoreceptors; inhibition of dopamine release, agonist, fast-scan cyclic voltammetry; Mus musculus, nucleus accumbens shell slice; single pulse stimulation): 0.044 ± 0.008 µM
COc1cc(NC(C)=O)c(Cl)cc1C(=O)Nc1nccs1 — inhibition (SKCa channel; 10 µM): -3.7%
Cc1nc(NC(=O)c2cc(S(=O)(=O)N(C)C)ccc2N(C)C2CCCC2)sc1C — IC50 (oligosaccharyltransferase; N-glycosylation, inhibitor, luciferase reporter): 0.38 µM
CC[S+]([O-])c1nc(-c2ccccc2)cc(C(F)(F)F)n1 (centres unmarked) — cells with nuclear SREBP1 (importin beta-1; SREBP1 nuclear import, high content imaging; HeLa Kyoto; 15.82 µM, 3 h, together with: glucose and MG132): 56.4% and 80.3% and 76.1%
NC1(C(=O)N[C@@H](CCO)c2ccc(Cl)cc2)CCN(c2nc[nH]c3nccc2-3)CC1 — time to peak response (Akt; inhibitor; mouse BT-474 xenograft; oral, 300 mg/kg): 8 h

Repeated from above:
FC(F)(F)c1ccc2nccc(NCCc3ccccc3)c2c1 — IC50 (CDK8/CDK19; NF-κB reporter gene; 293-NFκB-Luc; 3 h, together with: TNF-α 10 ng/mL): > 5 µM
NCCOc1cc(C(=O)Nc2cc(OCCN3CCCC3)c3ccccc3n2)nc(C(=O)Nc2cc(OCCN3CCCC3)c3ccccc3n2)c1 — ΔTm (c-myc G-quadruplex DNA; FRET melting; 1 µM, pH 7.4, together with: 60 mM potassium): 17 ± 0.8 K
[Cl-].[Cl-].[Pt+2].[Ru+2].c1ccc(-c2nc3ccccc3nc2-c2ccccn2)nc1.c1cnc2c(c1)ccc1cccnc12.c1cnc2c(c1)ccc1cccnc12 — supercoiled DNA (pcDNA supercoiled plasmid; agarose gel electrophoresis; 20 µM, photoinduced cleavage, together with: 0.1 µM pcDNA): 88.3%
CCS(=O)(=O)c1nc(C2CC2)cc(C(F)(F)F)n1 — cells with nuclear SREBP1 (importin beta-1; SREBP1 nuclear import, high content imaging; HeLa Kyoto; 0.5 µM, 3 h, together with: glucose and MG132): 87.9% and 87.4% and 95% and 84.1%
